Results of several laboratories.
Each numbered part is a random draw from the data of one study; scales do not carry over between parts. “And” joins repeats or separate records; there may be more than shown.
Sequence of UniProt P28223 (whole entry, looked up): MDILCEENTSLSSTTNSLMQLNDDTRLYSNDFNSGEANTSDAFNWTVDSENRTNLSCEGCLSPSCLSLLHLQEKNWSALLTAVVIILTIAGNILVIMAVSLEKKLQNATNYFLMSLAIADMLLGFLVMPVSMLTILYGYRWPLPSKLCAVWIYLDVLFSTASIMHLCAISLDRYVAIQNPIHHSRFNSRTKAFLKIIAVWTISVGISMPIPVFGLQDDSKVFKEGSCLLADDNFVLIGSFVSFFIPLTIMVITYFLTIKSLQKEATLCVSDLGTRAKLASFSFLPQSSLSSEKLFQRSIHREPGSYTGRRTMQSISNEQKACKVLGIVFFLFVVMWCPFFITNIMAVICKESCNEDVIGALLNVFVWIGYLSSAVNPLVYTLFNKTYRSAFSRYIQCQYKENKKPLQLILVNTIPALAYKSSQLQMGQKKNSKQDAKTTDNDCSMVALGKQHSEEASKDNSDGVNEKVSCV
Sequence of UniProt P28335 (whole entry, looked up): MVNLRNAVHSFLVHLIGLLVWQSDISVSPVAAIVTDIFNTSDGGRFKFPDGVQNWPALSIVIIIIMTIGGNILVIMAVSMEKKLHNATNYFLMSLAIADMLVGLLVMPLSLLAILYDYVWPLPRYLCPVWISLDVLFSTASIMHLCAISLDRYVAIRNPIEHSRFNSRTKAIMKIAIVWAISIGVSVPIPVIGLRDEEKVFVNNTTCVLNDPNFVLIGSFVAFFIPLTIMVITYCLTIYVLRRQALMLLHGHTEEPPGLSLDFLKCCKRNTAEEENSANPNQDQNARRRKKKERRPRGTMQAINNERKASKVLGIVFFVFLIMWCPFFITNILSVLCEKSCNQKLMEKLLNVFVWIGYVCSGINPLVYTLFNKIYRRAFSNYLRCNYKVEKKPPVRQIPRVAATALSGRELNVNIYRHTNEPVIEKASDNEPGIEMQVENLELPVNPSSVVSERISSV

Sample 1
Substance: meglumine antimoniate
Organism: Leishmania infantum chagasi
Technique: qPCR
Species: golden hamster chronic infection
Route: intraperitoneal
Dose: 50 mg/kg/day
Time: 10 days
Endpoint: threshold cycle
refers to: microglobulin mRNA; liver: 19.3 cycles and 18.8 cycles and 19 cycles and 18 cycles and 18.9 cycles and 20 cycles
refers to: TGF-β mRNA; spleen: 20.1 cycles and 24 cycles and 24.2 cycles and 20.6 cycles and 22.9 cycles
refers to: TNF mRNA; spleen: 26.8 cycles and 28 cycles and 28.4 cycles and 24 cycles and 24.9 cycles and 27.6 cycles
refers to: IFN-γ mRNA; liver: 33 cycles and 32.9 cycles and 30.3 cycles and 31.8 cycles and 29.6 cycles and 30.4 cycles

Sample 2
Cell line: HEK-293T-ACE2-TMPRSS2
Technique: cell count
Tested at: 10 µM
Endpoint: viability
O=C(OCCc1ccccc1)c1sc2ccccc2c1Cl: 121%
CS(=O)(=O)c1cc(C(F)(F)F)cc(S(C)(=O)=O)c1S(C)(=O)=O: 66%
Cc1cc(OC(C)C(=O)Nc2ccccc2Br)nc(N2CCN(c3ccccc3)CC2)n1 (centres unmarked): 93%
COCc1noc([C@@H]2CC(F)(F)CN2C(=O)c2cc(C)n[nH]2)n1: 97%

Sample 3
Cell line: HEK-293T/ACE2
Tested at: 10 µM
Time: 16 h
Baseline: vehicle
Endpoint: viability
CCCc1nc(C(C)(C)O)c(C(=O)OCc2oc(=O)oc2C)n1Cc1ccc(-c2ccccc2-c2nnn[nH]2)cc1: 105%
O=S(=O)(O)CCS: 101%
Cc1noc(NS(=O)(=O)c2ccc(N)cc2)c1C: 105%
CCN(CCO)CCCC(C)Nc1ccnc2cc(Cl)ccc12 (centres unmarked): 98.3%
Nc1ccncc1: 102%

Single results of other studies
pknB: Serine/threonine-protein kinase PknB (pknB, Mycobacterium tuberculosis, UniProt P9WI81)
Sequence of UniProt P9WI81 (whole entry, looked up): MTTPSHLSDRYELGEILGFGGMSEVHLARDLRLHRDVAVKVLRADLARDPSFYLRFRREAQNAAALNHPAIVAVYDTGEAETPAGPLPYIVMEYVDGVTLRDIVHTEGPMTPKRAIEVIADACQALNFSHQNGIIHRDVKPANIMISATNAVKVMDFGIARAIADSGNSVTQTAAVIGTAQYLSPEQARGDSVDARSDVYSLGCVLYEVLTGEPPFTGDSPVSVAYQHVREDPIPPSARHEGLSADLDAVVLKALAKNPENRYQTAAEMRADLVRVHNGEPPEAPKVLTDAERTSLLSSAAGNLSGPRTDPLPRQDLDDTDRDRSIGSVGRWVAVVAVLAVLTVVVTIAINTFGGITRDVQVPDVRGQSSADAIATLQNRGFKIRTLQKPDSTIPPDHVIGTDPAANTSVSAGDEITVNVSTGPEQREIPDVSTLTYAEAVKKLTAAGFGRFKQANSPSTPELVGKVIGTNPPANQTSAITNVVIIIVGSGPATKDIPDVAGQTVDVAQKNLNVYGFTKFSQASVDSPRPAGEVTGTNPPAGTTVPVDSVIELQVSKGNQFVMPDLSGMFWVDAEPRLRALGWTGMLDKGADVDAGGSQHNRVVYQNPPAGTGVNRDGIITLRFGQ
COc1ccc2c(c1)O[C@H](c1ccc(OC)c(OC)c1)C[C@@H]2NC(=O)C1(c2ccc3c(c2)OC(F)(F)O3)CC1
remaining binding (pknB; cell-free assay, competition with immobilised ligand; 1 µM): 88%

CN1CCN(C(=O)C(C)(C)c2ccc(C(=O)Nc3cn4cc(-c5ccncc5)ccc4n3)cc2)CC1
inhibition (HTR2C (Homo sapiens, UniProt P28335); binding, radioligand binding; 10 µM): 12.4%

Cc1nc(Cc2cccc(C(F)(F)F)c2)sc1-c1ccc(C(N)=O)nc1
remaining binding (pknB; cell-free assay, competition with immobilised ligand; 1 µM): 99%

O=C1CCc2cc(Nc3cc(OC4CCOCC4)c([N+](=O)[O-])cc3Cl)ccc2N1
inhibition (HTR2A (Homo sapiens, UniProt P28223); binding, radioligand binding; 10 µM): 3.21%

Repeated from above (sample 1):
refers to: IFN-γ mRNA; liver: 33 cycles and 32.9 cycles and 30.3 cycles and 31.8 cycles and 29.6 cycles and 30.4 cycles
